Results gathered from unrelated publications.
Each numbered part is a random draw from the data of one study; scales do not carry over between parts.

Block 1 — method: protein-binding microarray; form: double-stranded DNA, one strand shown; medium: in vitro; tested at: 0.8 µM; setting: whole 60-bp probe, no competitor; reading: higher = stronger binding; measurement: fluorescence intensity
Target: Centromere-binding protein 1, full length, N-terminal tag (CBF1, Saccharomyces cerevisiae, UniProt P17106, residues 1-351)
Sequence of UniProt P17106 (whole entry, looked up): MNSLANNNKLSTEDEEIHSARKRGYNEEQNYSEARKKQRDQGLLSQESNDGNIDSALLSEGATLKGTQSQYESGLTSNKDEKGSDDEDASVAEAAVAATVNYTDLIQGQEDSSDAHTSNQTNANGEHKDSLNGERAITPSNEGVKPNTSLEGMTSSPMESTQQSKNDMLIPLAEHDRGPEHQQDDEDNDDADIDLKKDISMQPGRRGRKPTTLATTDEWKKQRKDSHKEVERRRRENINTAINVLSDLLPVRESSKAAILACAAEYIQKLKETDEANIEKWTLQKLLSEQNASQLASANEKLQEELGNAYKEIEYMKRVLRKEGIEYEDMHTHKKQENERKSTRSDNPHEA
TGTACGAAGCTATCAGCGGTGACTATAGTAGTTAGGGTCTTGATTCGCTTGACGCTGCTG: 491 a.u.
CTAAAAGACAGGCAGCAGGTGAAGATAATACCATTCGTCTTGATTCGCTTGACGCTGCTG: 558 a.u.
GAAACTTTTAAAGTTAACATCACCGCTGAATTATAGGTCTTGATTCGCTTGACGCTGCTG: 496 a.u.
GAAAGTTTCACGTTTCATCACATGAAAGTGTGGTAGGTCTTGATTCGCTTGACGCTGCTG: 1310 a.u.
CTATTCATAGCATATCTGGTGGATCGTCTCTATTTCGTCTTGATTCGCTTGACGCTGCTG: 511 a.u.
CTAGAAGCTGAAATGCACGGATTGATAATGTAATTCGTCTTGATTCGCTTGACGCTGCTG: 527 a.u.
GAAGGTTTTCCCGCTAACGTGTTCTTAAAGGATTAGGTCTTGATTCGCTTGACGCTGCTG: 672 a.u.
GAAAGCTGGTAGCTGCTGGTGACGATTTCCAGCTAGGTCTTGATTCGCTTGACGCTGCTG: 517 a.u.
GAATTATAAATGATACGCACCACCAGGTGAAGGTAGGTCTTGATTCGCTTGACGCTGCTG: 528 a.u.
GAAGTCATTGCTGATCACATAAACAAGATTCAATAGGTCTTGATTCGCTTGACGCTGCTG: 613 a.u.
CTAAAGGACGAGCGTGGTGGAGGAAAGGGGCGCTTCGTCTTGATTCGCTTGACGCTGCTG: 483 a.u.
CTATCTCGTATCTTTCGCCTGATAATATGAAAATTCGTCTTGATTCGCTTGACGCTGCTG: 617 a.u.
GAAAGTATTTTGATTATCATGATGAAGTAAAAGTAGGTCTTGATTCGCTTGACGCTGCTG: 568 a.u.
CTAGCCCATTAATACCGGGTGACATAGTCCCACTTCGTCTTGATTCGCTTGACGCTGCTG: 475 a.u.
CTACTGTTAATATTACACATGACAAAAAAGTTGTTCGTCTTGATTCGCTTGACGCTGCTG: 1300 a.u.
CTAGTATTTTTCCACCACGAACCGTAGATGGCTTTCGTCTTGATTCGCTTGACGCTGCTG: 551 a.u.
GAAGAAAAGAAACACCGCGTGGTGCATCTATGTTAGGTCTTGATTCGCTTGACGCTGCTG: 699 a.u.
GAAAAAACACACGGTCACCTTTCTTATTATGGATAGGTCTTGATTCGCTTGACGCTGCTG: 574 a.u.
CTAATAAGAGAGCGGAGCACGTGGGAAAAGAGATTCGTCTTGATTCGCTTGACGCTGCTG: 3380 a.u.

Block 2 — method: RNA Bind-n-Seq; form: RNA; medium: in vitro; tested at: 100 nM; baseline: input RNA pool; reading: higher = stronger binding; measurement: bound/input enrichment
Target: RING finger protein unkempt homolog, zinc fingers 1-6, SBP tag (UNK, Homo sapiens, UniProt Q9C0B0, residues 30-357)
Sequence of UniProt Q9C0B0 (30-357, looked up): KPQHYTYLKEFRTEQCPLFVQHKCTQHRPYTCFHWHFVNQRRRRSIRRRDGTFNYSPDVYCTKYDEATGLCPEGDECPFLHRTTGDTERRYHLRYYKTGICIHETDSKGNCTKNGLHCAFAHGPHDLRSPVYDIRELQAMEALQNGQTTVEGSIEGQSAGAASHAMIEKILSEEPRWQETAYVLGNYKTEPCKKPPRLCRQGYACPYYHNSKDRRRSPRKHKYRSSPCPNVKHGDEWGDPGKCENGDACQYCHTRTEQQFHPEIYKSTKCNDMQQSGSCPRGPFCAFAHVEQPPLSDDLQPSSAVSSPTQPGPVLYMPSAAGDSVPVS
Setting: RNA with constant flanks, vertebrate orthologous sites, ends assumed
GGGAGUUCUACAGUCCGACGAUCAUCCUCUACUUAAAUUGGUAUUUUCAGACGAUAGGAAGCUUUUUUUUUUUUUUUUUACAGUUUAGUGUCUGGUUUCUCCAUGGAAGACUAAACUCAUGCUUAUAGCUAAAUGUGGUCUUUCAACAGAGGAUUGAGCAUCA: 0.537 ratio
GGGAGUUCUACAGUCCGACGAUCUUUUUUAAAAGUUUUUUUAAUUUAAUUUUUCCUUUCGGGGGUAAAGUUUGCUCUACCAAAUAGUGAUUGUAACAAAUUGAUCUGUUUUGGAUGUUGCUAUAGUGACAUGCAGUUAUAUAUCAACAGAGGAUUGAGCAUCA: 0.86 ratio
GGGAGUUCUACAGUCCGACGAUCUUGUGAUCAGCUCUCCAAACAGAAAUAGUAGUAAAAAAAAUAAGCAAAAUGAUAUUUGUAUAGAAAAAACAGAUGUUAAAUCAUGUAAAGUAAAUAUUGCCAGCAUUCCAGGCCCUAAAGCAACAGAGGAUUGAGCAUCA: 2.39 ratio
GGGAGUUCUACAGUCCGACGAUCAUUCAAACCCGUGGUGCCCUGGCCUCACGUGGAAGGCGUAGAAGUGGACUUGGAGUCUAUUCGAAGAAGGAACAAGGCCAGACAUGAACAAGAGCGCCGCUCCGGAGGAGAGAACCAGAACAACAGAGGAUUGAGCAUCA: 0.213 ratio
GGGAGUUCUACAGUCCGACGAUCAGCUUCUGGCGACAUUUGGCCUGGCCUUUCAGCAUAUGAUAACAGUCCAAGGUCACCCCAUAGUCCCUCUAUUGCCUCCCCACCUAGUCAGAGUUCAUCUUGCUCUGAUGCCCCUUUGCUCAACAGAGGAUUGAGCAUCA: 0.688 ratio
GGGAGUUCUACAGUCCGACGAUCGUCAUCUGACUGGAUGAAGACUGUUCCAAGUUAUAACCAAACAAAUAGCUCCAUGGACUUUAGAAAUUAUAUGAUGAGAGAUGAAAAUUUGGAACCACUGCCCAAAAACUGGGAAAUGGCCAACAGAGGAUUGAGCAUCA: 1.67 ratio
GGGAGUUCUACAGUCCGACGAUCAGUAGUUUUAAGCUUGUUUGCACAGUUCUUUUUUUCCAUUGGAAAUGGAAUUCAUUGCCUUAGGUCUUUUUAAAUAGUGUAUUAUUAUCGUUGGGGCUGGCUCUAUGCUUGAAACCAGUUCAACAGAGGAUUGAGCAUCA: 3.42 ratio
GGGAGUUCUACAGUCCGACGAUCAAUUUUUUAAAGUUUUUUAAUUUAAUUUUUCCUUUCGGGGGUAAAGUUUGCUCUACCAAAUAGUGAUCGUAACAAAUUGAUCUGUUUUGGAUGUUGCUAUAGUGACAUGCAGUUAUACAUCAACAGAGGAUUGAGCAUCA: 0.464 ratio

Block 3 — method: protein binding microarray; form: double-stranded DNA, one strand shown; medium: in vitro; tested at: not given; baseline: not given; reading: higher = stronger binding; measurement: E-score
Target: Histone acetyltransferase KAT6A, winged helix 1, GST fusion (KAT6A, Homo sapiens, UniProt Q92794, residues 1-85)
Setting: 8-mer, flanks averaged, mean of 2 arrays, mostly near background
Target sequence (chain): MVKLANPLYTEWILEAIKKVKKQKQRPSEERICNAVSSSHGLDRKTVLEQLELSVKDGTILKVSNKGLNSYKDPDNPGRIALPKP
AAGCTTAC: -0.0727
CTCTTTGC: -0.0101
CGGAAGAG: 0.114
GAGTGCTA: -0.192
AATGGCAG: -0.133
GCAAAACC: 0.0631
ATAGATAT: -0.12
ATTTCATA: -0.274
CGGCAGGC: 0.255
CACGAGAC: -0.0237
GGTGCAAA: -0.17
ACAAACAG: -0.252
GAGCGAGA: 0.0203
ACTTTGCG: 0.0763
AATTTTCA: -0.254
CGCGCCCG: 0.457
GCTGGACA: -0.0799
GGCTAACA: 0.126
CCGGATTA: 0.0377
CACGCACA: 0.0444
GGTGACAA: 0.0335
AATGTCTA: -0.103
CTAGATAA: -0.189
AATGCGGC: 0.329
ATAAAAGC: 0.0234

Block 4 — method: RNA Bind-n-Seq; form: RNA; medium: in vitro; tested at: 1 µM; setting: whole 134-nt RNA, ends assumed; together with: 150 mM KCl; baseline: input library; reading: higher = stronger binding; measurement: log2 enrichment
Target: Ras GTPase-activating protein-binding protein 1, RRM domain (G3BP1, Homo sapiens, UniProt Q13283)
Sequence of UniProt Q13283 (whole entry, looked up): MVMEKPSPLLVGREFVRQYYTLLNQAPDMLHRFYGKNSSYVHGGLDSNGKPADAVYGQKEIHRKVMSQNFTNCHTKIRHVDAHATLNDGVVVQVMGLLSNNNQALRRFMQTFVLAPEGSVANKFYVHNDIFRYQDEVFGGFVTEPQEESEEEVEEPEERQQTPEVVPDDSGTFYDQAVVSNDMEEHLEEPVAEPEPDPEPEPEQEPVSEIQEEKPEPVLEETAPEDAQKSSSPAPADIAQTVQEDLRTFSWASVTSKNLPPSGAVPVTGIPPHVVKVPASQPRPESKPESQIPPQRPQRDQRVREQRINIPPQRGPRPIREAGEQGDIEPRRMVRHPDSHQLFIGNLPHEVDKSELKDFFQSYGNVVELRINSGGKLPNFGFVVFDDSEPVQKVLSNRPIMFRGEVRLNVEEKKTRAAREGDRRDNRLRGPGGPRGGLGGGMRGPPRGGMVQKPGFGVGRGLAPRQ
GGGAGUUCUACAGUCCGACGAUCAAGUCCUGUGCUACACAUCGUAUGUACCGAAUCGGAAAAGGAAAAGGGGAAAAGGGAAAGUAUUAUGUUACGCCGUUCGGAUCUGCACUUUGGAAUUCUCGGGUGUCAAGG: -0.221
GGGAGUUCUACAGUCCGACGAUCCACAGACAACACGCACCCACACAGACACAGAGGGAAGGGGUUGGGAUGGGGACAGGGUACACAGCAGGGCGGGGUAGGACCCCAGCCCCUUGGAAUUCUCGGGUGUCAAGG: 0.126
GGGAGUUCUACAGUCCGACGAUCUGGGAGGUGGAUUUUGUUUAUUUUUUUAGCUCAUUUCCAGGGGUGGGAAUUUUUUUUUAAUAUGUGUCAUGAAUAAAGUUGUUUUUGACAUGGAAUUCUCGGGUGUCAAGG: 1.81
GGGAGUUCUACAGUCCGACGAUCCCUCAAGUCCUGUGCUACACAUCGUAUGUACCGAAUCGGGGCGGGCGGGGCGGAAAGUAUUAUGUUACGCCGUUCGGAUCUGCACUUCCAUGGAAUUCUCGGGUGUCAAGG: 0.083
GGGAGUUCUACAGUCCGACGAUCUCCUGUGCUACACAUCGUAUGUACCGAAUCGGGGUUUGGGGAAAAAAAGGGGAAAGGGGAAAGUAUUAUGUUACGCCGUUCGGAUCUGCAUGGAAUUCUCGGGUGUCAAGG: 0.997
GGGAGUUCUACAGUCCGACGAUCAGUCCUGUGCUACACAUCGUAUGUACCGAAUCGGGGUUUGGGGUGGGGAAAAAGGGGAAAGUAUUAUGUUACGCCGUUCGGAUCUGCACUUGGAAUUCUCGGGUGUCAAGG: 0.838
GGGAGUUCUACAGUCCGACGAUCUCCUGUGCUACACAUCGUAUGUACCGAAUCGGAAAAAAGGGGAAAAAAGGGGAAAAAAGGAAAGUAUUAUGUUACGCCGUUCGGAUCUGCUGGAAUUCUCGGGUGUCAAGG: 0.00627
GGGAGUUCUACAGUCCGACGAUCUGGGAGGUGGAUUUUGUUUAUUUUUUUAGCUCAUUUCCAGGGGUGGGAAUUUUUUUUUAAUAUGUGUCAUGAAUAAAGUUGUUUUUGAAUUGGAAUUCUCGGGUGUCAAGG: 1.51
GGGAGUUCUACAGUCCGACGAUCAAGUCCUGUGCUACACAUCGUAUGUACCGAAUCGGUUUUUGGAAAAAAAGGAAAGGAAAGUAUUAUGUUACGCCGUUCGGAUCUGCACUUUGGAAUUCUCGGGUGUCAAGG: -0.288

Excerpt of the above (block 3):
AATTTTCA: -0.254
CGCGCCCG: 0.457
GCTGGACA: -0.0799
GGCTAACA: 0.126
CCGGATTA: 0.0377
CACGCACA: 0.0444
GGTGACAA: 0.0335
AATGTCTA: -0.103
CTAGATAA: -0.189
